Experimental data gathered from unrelated publications.
Lines come from different studies, so protocols differ.
Organism: Acinetobacter baumannii

SMILES	observed	technique	strain	medium	time	temperature	MIC
CC[P+](CC)(CC)[Au-][S][C@@H]1O[C@H](COC(C)=O)[C@@H](OC(C)=O)[C@H](OC(C)=O)[C@H]1NC(=O)C(Cl)(Cl)Cl	–	–	NCTC 13420	–	–	–	82 µM
COc1ccc2ccc3c(c2c1)C=[N+]1C2CCCCC2[N+]2=Cc4ccc(C)cc4[O][Au-]21[O]3.F[P-](F)(F)(F)(F)F (stereo not shown)	bacterial growth	broth microdilution	carbapenem-resistant clinical isolate	–	24 h	–	> 20 µM
COc1ccc(-c2nc3ccc(-c4c[nH]c(N)n4)cc3[nH]2)cc1	microbial growth	broth dilution	AB5075	–	–	–	≥ 200 µM
CC(=O)N[C@H](CCCCN)C(=O)N[C@H](CC(C)C)C(=O)N[C@H](CCCCN)C(=O)N[C@H](CO)C(=O)N[C@H](CC(C)C)C(=O)N[C@H](CC(C)C)C(=O)N[C@H](CCCCN)C(=O)N[C@@H](C(=O)N[C@H](CC(C)C)C(=O)N[C@H](CO)C(=O)N[C@H](CCCCN)C(=O)N[C@H](C)C(=O)N[C@H](CCCCN)C(=O)N[C@H](CCCCN)C(=O)N[C@H](CCCCN)C(=O)N[C@H](CC(C)C)C(=O)N[C@H](CC(C)C)C(=O)N[C@H](CCCCN)C(=O)N[C@@H](C(=O)N[C@H](C)C(=O)N[C@H](CC(C)C)C(=O)N[C@H](CCCCN)C(=O)N[C@H](C)C(=O)N[C@H](CC(C)C)C(=O)N[C@H](CO)C(=O)N[C@H](CCCCN)C(N)=O)[C@H](C)O)[C@H](C)O	–	–	821	Mueller-Hinton broth	24 h	37 °C	0.3 µM
CCS(=O)(=O)[C@H]1[C@H](O)[C@@H](N)[C@@H](O[C@H]2[C@H](O[C@@H]3O[C@H](CO)[C@@H](O[C@H]4O[C@@H](CN)[C@@H](O)[C@H](O)[C@H]4N)[C@H]3O)[C@@H](O)[C@H](N)C[C@@H]2N)O[C@@H]1CO	–	–	reference strain	–	–	–	> 128 µg/mL
O=C(O)c1ccc(-n2cc(/C=N/Nc3cccc(Cl)c3F)c(-c3ccc4ccccc4c3)n2)cc1	–	–	ATCC 19606	–	–	–	> 50 µg/mL
C[C@H]1COc2c(N3CCN(C)CC3)c(F)cc3c(=O)c(C(=O)N[C@@H](CCCNC(=N)N)C(=O)N[C@@H](Cc4ccc(-c5ccccc5)cc4)C(=O)N[C@@H](CCCNC(=N)N)C(=O)N[C@@H](Cc4ccc(-c5ccccc5)cc4)C(=O)N[C@@H](CCCNC(=N)N)C(N)=O)cn1c23	–	broth microdilution	ATCC 1799	–	–	–	2.5 µM
CCCCCCCCCC(=O)NCCCC[C@H](NC(=O)[C@H](CC(C)C)NC(=O)[C@H](CCCCN)NC(=O)[C@H](CCCCNC(=O)[C@H](CC(C)C)NC(=O)[C@H](CCN)NC(=O)[C@H](CCCCNC(=O)[C@H](Cc1ccccc1)NC(=O)[C@@H](N)CCCN)NC(=O)[C@H](Cc1ccccc1)NC(=O)[C@@H](N)CCCN)NC(=O)[C@H](CC(C)C)NC(=O)[C@H](CCN)NC(=O)[C@H](CCCCNC(=O)[C@H](Cc1ccccc1)NC(=O)[C@@H](N)CCCN)NC(=O)[C@H](Cc1ccccc1)NC(=O)[C@@H](N)CCCN)C(N)=O	–	broth microdilution	ATCC 19606	–	–	37 °C	2 µg/mL
c1ccc(CN2CCOCCOCCN(CCCCCCCCCCCCCCN3CCOCCOCCN(CCCCCCCCCCCCCCN4CCOCCOCCN(Cc5ccccc5)CCOCCOCC4)CCOCCOCC3)CCOCCOCC2)cc1	–	–	meropenem-resistant	–	–	–	12 µM
COc1ccc2ccc3c(c2c1)C=[N+]1C2CCCCC2[N+]2=Cc4cc(C)ccc4[O][Au-]21[O]3.F[P-](F)(F)(F)(F)F (stereo not shown)	bacterial growth	broth microdilution	carbapenem-resistant clinical isolate	–	24 h	–	> 20 µM

A few entries again:
SMILES	observed	technique	strain	medium	time	temperature	MIC
C[C@H]1COc2c(N3CCN(C)CC3)c(F)cc3c(=O)c(C(=O)N[C@@H](CCCNC(=N)N)C(=O)N[C@@H](Cc4ccc(-c5ccccc5)cc4)C(=O)N[C@@H](CCCNC(=N)N)C(=O)N[C@@H](Cc4ccc(-c5ccccc5)cc4)C(=O)N[C@@H](CCCNC(=N)N)C(N)=O)cn1c23	–	broth microdilution	ATCC 1799	–	–	–	2.5 µM
